Results pooled from the literature.
Every numbered part comes from another study and shows a few of its results, in no order. Changes are numbered by the printed parent chain.

Set 1 — technique: RNA Bind-n-Seq; molecule type: RNA; sample: in vitro; tested at: 365 nM; baseline: no-protein control; direction: higher = stronger binding
Target: RNA binding protein fox-1 homolog 2, RRM domain, GST-SBP tag (RBFOX2, Homo sapiens, UniProt O43251-10, residues 100-194)
Setting: natural RNA segment, single round, ends assumed
All sequences stand within: GGGAGUUCUACAGUCCGACGAUC … UGGAAUUCUCGGGUGCCAA
Target sequence (chain): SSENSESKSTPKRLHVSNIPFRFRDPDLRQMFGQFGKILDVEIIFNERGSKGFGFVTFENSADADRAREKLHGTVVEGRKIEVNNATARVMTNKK
Sequence	RBNS enrichment (R)
GACUGUAUGGUCCGGGGGGUUCCUGCUGAGGAGAGGGGCUGAGGGUCCCAUGGAGAAGGGGCUGUAUCUGCCCUAUUACCUGCUAACCUAUACACUGAGAAGGAAGAAAG	0.533
UACUUCCAACUUGUUCUGAUGCCCUCUGUUUCCCAGGCCAGGCUUGUCUGUGGUGACCUGGGCAUGGGUGACAGGGCUCUCAUUUGCCCCUUGGUCUCUUUAUGCUGCUG	0.925
CAGGUAAUACAGAUACUGGCACUGAUUGUAAUUAAAAUGAGAGAAAACUCUAGCGCAUCUUCUGGCACGGUUUUAACAACGUGUUUGUGUUGAAUUUCCUUUUUAUGCAU	1.11
GCAUCUCACGAGAGUCCCUCAGGCUCUGCAACACUAGAUUCGAAUAUGAGCCUAGGGUUUCCCCAACACGUGCGUGCAUAUGAAACCACAUCAUGAUUCCCGACGUGAGU	0.311
GGCCAGGUGGGGCUGCCUCAGUCCUGUCCCCUUGGGCACUGAGGAGAGGGGCCCAUUCACCUUUCUCCUAGAAUGCUGUUGUAAAUAAACAAAUGGAUCCCUGGAAACUU	0.571
UCUCUAAGAGGUGUAUGAAAAACCCAUCUUGCAAAAGAGACCAAAAUAUUAGACACAAUCGUUCCCAUUCCUGACUCUUCAAUGGAAAAGGAAGGUACAGAUGUUUACAG	0.239
UCCUGUCCUUCCCCUCAUCUCUUCCUGGGGUUUCAAGACCAAAGGCAAUGAGGAGAUACACGAUUCUGAAAGGUCAUCUGAAGCCUGAAACCCCUAGAGCAACCCCCUCU	0.381
GUAAGCAUGCAUGGAGGCCUCGAGGCACCACAACAAGGCCAGGUUCUUAGCACAUCCUCUGUUCUCUACCUGUCAUGCUUCAAGAGUUCCAGCUGGCCUGCUGUGAAGCC	19

Set 2 — technique: competition protein-binding microarray; molecule type: double-stranded DNA, one strand shown; sample: in vitro; tested at: 2 µM; together with: Cbf1 competitor, 0.05 µM; direction: higher = stronger binding; all sequences stand within: … GTCTTGATTCGCTTGACGCTGCTG
Target: Phosphate system positive regulatory protein PHO4, full length, GST-tagged (PHO4, Saccharomyces cerevisiae, UniProt P07270, residues 1-312)
Setting: whole 60-bp probe, lowest competitor level
Construct (chain): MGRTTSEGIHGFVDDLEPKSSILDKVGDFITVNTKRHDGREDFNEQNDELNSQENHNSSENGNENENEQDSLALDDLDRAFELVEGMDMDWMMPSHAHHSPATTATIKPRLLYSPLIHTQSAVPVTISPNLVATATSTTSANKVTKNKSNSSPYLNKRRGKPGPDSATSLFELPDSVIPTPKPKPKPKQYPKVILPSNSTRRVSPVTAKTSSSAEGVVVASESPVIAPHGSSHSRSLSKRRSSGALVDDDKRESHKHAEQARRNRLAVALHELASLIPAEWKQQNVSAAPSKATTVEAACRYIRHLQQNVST
Sequence	fluorescence intensity [a.u.]
CACTCCCGCAGTCCTGGCGTGATGGGCCACTGCAGT	4630
CGTAAATATCAACTTGTCGTGCTAATAAGCACTAAC	6560
CTTGGGCCCTATCGGCACGCTAAAGATGCTTGTGGA	6170
AACTGTACCGGCTGGCACGTCGTACACAGAATCAGA	5440
GAATGAGGTTGATAACTCGTGGATTTTTTATACCTG	7800
CTTAATGGACTAAAGCACGTGACTCGTAAAACCCAT	16000
TGCGCAACAACTTGAAAGGTGGGTGTATGTCTAGAA	4580
TAAACTTTCTACGGCCACGTGTAACCTCTTTCAGAA	16400

Set 3 — target: FOS, bZIP domain (human); technique: DHFR protein complementation; sample: yeast; baseline: wild-type JUN-FOS pair; direction: higher = stronger binding
Setting: single substitutions, most at no-binding floor
Parent: JUN, bZIP domain (human); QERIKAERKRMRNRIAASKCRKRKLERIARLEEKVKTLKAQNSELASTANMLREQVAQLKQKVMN; partner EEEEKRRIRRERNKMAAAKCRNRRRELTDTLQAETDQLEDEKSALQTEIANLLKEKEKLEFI
Change	binding fitness [natural log]
S43H	-0.0165
L38V	-1.06
A46I	-0.142
A49Y	-0.442
K34V	-0.284
R30V	0.199
V56L	-0.492
Q58P	-1.45

Single results of other studies
SMILES	system	setting	quantity	result
COc1cccc(-c2[nH]ncc2CNC2(c3ccccc3F)CCCC2)c1	mouse, microsomes or S9	2 µM, 0.5 h	remaining compound	3.61%

Some of these lines once more (set 3):
Change	binding fitness [natural log]
A49Y	-0.442
K34V	-0.284
R30V	0.199
